{"data": "Experimental data from different studies", "note": "Protocols differ between the studies behind these lines. Several values in a cell are separate wells, animals, samples, runs or records. ± gives the spread as reported."}
{"SMILES": "CN(CCO)CCO.O=C(O)C(Cl)Cl", "target or system": "Xanthium sibiricum", "setting": "15 mg/mL, 21 days, post-emergence, greenhouse", "quantity": "herbicidal inhibition", "result": "-48%"}
{"SMILES": "O=C(c1cncc(-c2ccc3ncnc(Nc4ccc(OCc5cccc(F)c5)c(Cl)c4)c3c2)c1)N1CCOCC1", "target or system": "Plasmodium falciparum", "test": "parasite growth, SYBR Green fluorescence", "system": "C235 (TM91C235), drug-resistant", "quantity": "EC50", "result": "500 nM"}
{"SMILES": "CCOC(=O)C1(Cc2ccc([N+](=O)[O-])cc2)Oc2cc(F)ccc2N(Cc2ccc([N+](=O)[O-])cc2)C1=O (stereo not shown)", "target or system": "Arabidopsis thaliana", "test": "root length, petri dish germination", "system": "Col-0, 1/2 MS medium", "setting": "50 µg/mL, 7 days, 22 °C, dark", "quantity": "inhibition", "result": "39%"}
{"SMILES": "CC[C@H](C)CCCCC(=O)N[C@@H](CCN)C(=O)N[C@H](C(=O)N[C@@H](CCN)C(=O)N[C@H]1CCNC(=O)[C@H]([C@@H](C)O)NC(=O)[C@H](CCN)NC(=O)[C@H](CCN)NC(=O)[C@H](CC(C)C)NC(=O)[C@@H](CC(C)C)NC(=O)[C@H](CCN)NC1=O)[C@@H](C)O", "target or system": "Escherichia coli", "test": "daily serial passaging", "system": "ATCC 8739", "setting": "highest sub-MIC, 10 days", "how to read": "baseline: initial MIC", "quantity": "MIC fold change", "result": 1.95}
{"SMILES": "CCOC(=O)C1(Cc2ccccc2)Oc2ccccc2N(Cc2ccccc2)C1=O (stereo not shown)", "target or system": "Arabidopsis thaliana", "test": "root length, petri dish germination", "system": "Col-0, 1/2 MS medium", "setting": "200 µg/mL, 7 days, 22 °C, dark", "quantity": "inhibition", "result": "100%"}
{"SMILES": "O=S(=O)(c1ccc(-c2ccc3ncnc(Nc4ccc(OCc5cccc(F)c5)c(Cl)c4)c3c2)cc1)N1CCSCC1", "target or system": "Plasmodium falciparum", "test": "parasite growth, SYBR Green fluorescence", "system": "C235 (TM91C235), drug-resistant", "quantity": "EC50", "result": "760 nM"}
{"SMILES": "O=C1NC2(CC2)COc2ncc(F)cc2[C@H]2COCCN2c2ccn3ncc1c3n2", "system": "Sprague-Dawley rat, male, heart", "setting": "oral, 20 mg/kg/day, 4 weeks, end of treatment", "quantity": "organ-to-body weight ratio", "result": "0.435 ± 0.062%"}
{"SMILES": "CN1CCN(S(=O)(=O)c2ccc(-c3ccc4ncnc(Nc5ccc(OCc6ccccc6)c(Cl)c5)c4c3)cc2)CC1", "target or system": "Plasmodium falciparum", "test": "parasite growth, SYBR Green fluorescence", "system": "C235 (TM91C235), drug-resistant", "quantity": "EC50", "result": "28 nM"}
{"SMILES": "C=CCN1C(=O)C(CC=C)(C(=O)OCC)Oc2cc(F)ccc21 (stereo not shown)", "target or system": "Arabidopsis thaliana", "system": "Col-0, seed germination, dark", "setting": "50 µg/mL, 7 days, 22 °C", "quantity": "root length inhibition", "result": "91.9%"}
{"SMILES": "Cc1cc(C(=O)Nc2nc3cccc(C)c3n2[C@H]2CCCCN(C(=O)/C=C/CN(C)C)C2)ccn1", "target or system": "Trypanosoma brucei brucei", "system": "2T1 wild type", "setting": "5 x EC50", "quantity": "survival", "result": "0.142% and 0.117% and -0.088% and -0.101%"}
